# Published values from different studies.
# Parts stem from different laboratories: compare values within a part only. Positions count from the first letter of the parent shown.

# Block 1
# Target: RNA binding protein fox-1 homolog 2, RRM domain, GST-SBP tag (RBFOX2, Homo sapiens, UniProt O43251-10, residues 100-194)
# Technique: RNA Bind-n-Seq
# Molecule type: RNA
# Matrix: in vitro
# Concentration: 365 nM
# Setting: natural RNA segment, single round, ends assumed
# Reference: no-protein control
# Direction: higher = stronger binding
# Constant ends, left off below: GGGAGUUCUACAGUCCGACGAUC … UGGAAUUCUCGGGUGCCAA
# Construct (chain): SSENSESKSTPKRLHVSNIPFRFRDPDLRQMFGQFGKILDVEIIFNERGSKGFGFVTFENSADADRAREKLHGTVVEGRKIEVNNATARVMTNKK
Strand,RBNS enrichment (R)
CAGGCAGUUUAGUCCAUAGUAGUACUAUUUUGAUGAUAUUUUCCAUUAACAAAAUGUAAUUUCAGAUUAUUCGUUUAUAGGCUUUAUAAUUUUAUGGUUUUUUUUUAAAA,0.957
UCCCACUAUACCUGAGCACCGGGAGCUUCCAGAGCACGCCUGCCUCCCUCCCUCUAGUCUGCAUGUGUGCAAGGAUGUCAGACAGUCUCGACUUAGGAUGGACAGACACA,4.52
CUCUGCCAAAUGGAAAAUGACCAAAUUUAAGAGGGUGGGACAGUCCCCUGCUCCUCUCCCAGAGGGCACUGCUUGGAAAUUGUGUUUUCCCCAUUUAUGGUGCUCUGUAU,0.385
UUACCCUUUUAGCAGAUAAUUCGGAGCAUUAUUUAUUUAAAGAAUUUAUAAUUCUACAGUACCUAUUAAUGCUGUACUUCCAGGAUGCUCAUGCCCAUUUUAUUCUUAUA,0.435
CAAUUGGUGUUUUUGUUAAACGAAUGAAUCAUCUGUUCAUGCAUGCUCUACUUUGAUAUUAUAACCUAUGUCACAUGUGUUUAAUAAAUACCAUAUAUUUUGUUCUACUA,7.79
GUCUGGGAUCCAGGGCAAUGUGAAUUUUCUUUUUAUUUGGGAGAUUGUUCACGGAAAACAGAUCUUCUUCUCUCUUGUCCACCUAUUAAUUGUUUACAAUAUUUGUACAU,0.403
GAAAUUCAGUUAUAAAGUCAAGGACGAAUUUGCACAGUGAUAUAUUUCUAUGUGUAUGCAAGUACAAGUAUAUAAUAUGUCACCUGGCACAUUCAUUUUCUCAGUUGAAG,0.216
GUUGAGUUUUGCAUAAACACAAACUGUUCAUCCACAGCACUGCUCAAUCUCCUUCUAUCCCUCCUCCCCAAGCAGUCAGGUUAUGGGCUAUGGCCCUAUGUCACUCUGCC,0.212
AUCAGCCACAAUUCCUUUUGGAACUGUUACACUCUGCCUCUGGUCCCUCCAACGUGGUCCUCUUCCUGGCUGGAGGUGCUGGAUUCUGACUGCCAUCUUGCUCCAUGGUG,0.325
GUUGGUUUGGGUUUUUUUUUUUCUUUUUCUACUUUUAAAGUAUUUAAAUGCAAUUAUUUUUCUGCCAAUGGUAUAGCCUAUGCCUAUGCUUGAGAAGUGUAGGUCUACUG,0.349
AGAAUCAGUGAAAACAGCCUAACAAAACCUCUGACAUCAGUAUAUCAACUUUUAACAGCCCACUCACUGGCUUUUCUAAACUACCAAAAACCACCUGUAGGAUACUGCAU,0.41
GCUGCAAACCUAAGCAGGCAGGUAGUCUAUGGACUUCCAAACUUAGAAGGGUCUGAUAUUAGGUUUAGUGCUCUGCUAGUGCAGUUGUUGAAUUCUUAAGAAUGUUUGAU,1.9

# Block 2
# Target: Interferon regulatory factor 5, full length, phosphomimetic (IRF5, Homo sapiens, UniProt Q13568-2, residues 1-514, K96S/S451D/S453D/S456D/S462D)
# Technique: protein-binding microarray
# Molecule type: double-stranded DNA, one strand shown
# Matrix: in vitro
# Concentration: 250 nM
# Setting: 60-bp whole probe
# Together with: salmon DNA 0.4 mg/ml
# Reference: random background probes
# Direction: higher = stronger binding
# Constant ends, left off below: GCCTAGCAC … GTCTTGATTCGCTTGACGCTGCTG
Strand,log fluorescence
GACGGACTGGACACTGGGCACGTGCTA,-0.561 z-score
TCAAATTTCTTTCTAATACTGTGCTAG,1.85 z-score
GACGATCTTAGTATCGAGACGTGCTAG,2.14 z-score
GACGGACTACTTATCCTGACGTGCTAG,-0.343 z-score
TCATATATGTGTATATAACTGTGCTAG,0.613 z-score
TCATTTCTATATTTGCTACTGTGCTAG,2.25 z-score
GTTTTTTTCTATATGCAATGGTGCTAG,2.16 z-score
TTAGAACTGGGCTTTCGATTAGTGCTA,6.22 z-score
TTAGATTTCGGGACTGGCTTAGTGCTA,2.37 z-score
TTAGGACTGCTGATCCTTTAGTGCTAG,-0.335 z-score
GACGGTCTCCTTCTCCTGAAGTGCTAG,-0.107 z-score
TTAGAGTTCGGGTATCGATTAGTGCTA,3.33 z-score
CCACACACCATTCTCGGGACGTGCTAG,0.117 z-score
GACGGACTGGGTCTCGGGAGGTGCTAG,-0.711 z-score
TCAGTTTTCTTTTCCATTTTGTGCTAG,2.46 z-score
TGAGTGAAAGGCCCATACATGTGCTAG,0.178 z-score
TCATTTTTTTTCATCATTGCGTGCTAG,1.51 z-score
TTAGGTATCGGTTTCAGTTAGTGCTAG,9.31 z-score
TATTGTCTCCCCCATCTTGTTGTGCTA,0.363 z-score
GACGGTCTCGGAGTGGGGACGTGCTAG,-0.408 z-score
GCTTTCCCCTTGGACTCTTTGTGCTAG,1.22 z-score
GTTATCCTATATCTGAACCGGTGCTAG,0.356 z-score

# Block 3
# Target: RING finger protein unkempt homolog, zinc fingers 1-6, GST-SBP tag (UNK, Homo sapiens, UniProt Q9C0B0, residues 30-357)
# Technique: RNA Bind-n-Seq
# Molecule type: RNA
# Matrix: in vitro
# Concentration: not given
# Setting: RNA with constant flanks, ends assumed
# Reference: input RNA pool
# Direction: higher = stronger binding
# Constant ends, left off below: GGGAGUUCUACAGUCCGACGAUC … CAACAGAGGAUUGAGCAUCA
# Target sequence (chain): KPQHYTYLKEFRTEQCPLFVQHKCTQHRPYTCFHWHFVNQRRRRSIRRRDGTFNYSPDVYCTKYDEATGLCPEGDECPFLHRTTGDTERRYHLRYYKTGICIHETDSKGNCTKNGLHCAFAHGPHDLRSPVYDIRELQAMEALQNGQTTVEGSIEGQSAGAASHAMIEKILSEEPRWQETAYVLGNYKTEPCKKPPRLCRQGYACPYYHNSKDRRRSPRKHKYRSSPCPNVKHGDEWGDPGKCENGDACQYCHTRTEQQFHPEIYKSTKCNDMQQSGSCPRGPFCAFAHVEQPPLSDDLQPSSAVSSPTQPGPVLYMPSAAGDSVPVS
Strand,bound/input enrichment [ratio]
CAACAAUUAGAAGCACCUUAUAACAGUGAUACUGUGCUUGUCCACCGAGUUCACAGUUAUUCCGAGCGUCAUGGUCUUAUCAACUUCGGCAUCUAUAAGAGGAUAAAACCCCUACCAACU,0.22
UGGACAAACCAUAAAUUCAAUGUGUCUGCCACUCCAGAGCAAUACGUUCCUUAUUCCACCACCCGAAAGAAGAUUCAUGAAUGGGUUCCACCUUCGACACCUUACAAGUGACCGCAGUGA,0.174
AUUAAUAGGUAUAAGGAUUUUUCUUAUUAAUCUAAUAAAAUUCCUUAAUAGGAAUUUCCACCGCUUAAGAGUGGUUUAUUUUAUCUGCAUCUUCUUUGGUGAUUGCAAAUCCCUUGUGAU,1.09
AUUGUUCACAGAGACCUCAAGGCUGAAAAUCUGUUAUUAGAUGCGGAUAUGAACAUUAAAACCGCAGAUUUUGGUUUUAGCAAUGAAUUUACUGUUGGCAGUAAACUAGACACGUUUUGU,0.619
GUAUGAAUUUAUUUUCCUUUGCUACUCAUUACCUGACCACUUUCACUCCUCUAGAUACCCUCCGGAAUAAACCUGAACUGUUCCAAAUCGAUUCUUCCAAGAGCUUUGGUGUUGGUACCU,0.614
AACAAUGAAUUUAAGACAUAUGGCAUUGAACCUUGAUAUUGAAUUCACAAAGAAUUUCCUACCGAGCACAGAUUUUUGUUAACAUGAGUCAUAACUGUUAACAAUAUUUUAUUUCUCUUA,0.113
UCACUUCAAGGGUACCUGAAGCGAAUUGGCACCAAAGCAGCAGCUGUAUUGCCGCAGUUCCCGCUUCACCUUCACGAUGUUUCCCUUGGUCAAAAGCGCACUAAAUCGUCUCCAAGUUCG,0.0937
AGCAGGAAGGGCCUCAUAGCUGCCAUCUGUGCAGGUCCUACGGCUCUGUUGGCUCACGAAGCCGGUUUUGGAUGCAAGGUCACAACACACCCACUGGCUAAGGACAAAAUGAUGAAUGGC,0.0993
UGUGAAAAUAUAUAAAUAUCACCCAAAAGGCUUUCUGCCCUAUAUUUUUAAAAUACAGAACCGUUAUAUUUGAAGUAGCCCUGGCCCUAGUUCUAUAGGGCUUGGCUAUUUAAUAUUUUU,0.157
AGAAGCUUCAUAAGGAAUAAACAAGUUGAAUAGAGAAAACACUGAUUGAUAAUAGGCAUUUCCGUGGUCUUUUUAAUGUUUUCUGCUGUGAAACAUUUCAAGAUUUAUUGAUUUUUUUUU,0.929
CAAGUACCUUAUAAAUAUGACUUAUAUGAAAAAACUUUGAAAUAUAAUUCAGACUUGCUUAACCGUAAUAGAAGCUAUGCAGGAAAGCAGACUGAUGAGUGUAAUGAAUUUGGAAAAGCA,0.387

# Block 4
# Target: CCNE1, cyclin fold, Cln2 fusion (human)
# Technique: yeast growth competition, sequencing
# Matrix: yeast
# Setting: strong parent motif
# Reference: not given
# Direction: higher = stronger binding
# Starting sequence: PKMYT1 docking peptide (human); SFEPRNLLSLFED; partner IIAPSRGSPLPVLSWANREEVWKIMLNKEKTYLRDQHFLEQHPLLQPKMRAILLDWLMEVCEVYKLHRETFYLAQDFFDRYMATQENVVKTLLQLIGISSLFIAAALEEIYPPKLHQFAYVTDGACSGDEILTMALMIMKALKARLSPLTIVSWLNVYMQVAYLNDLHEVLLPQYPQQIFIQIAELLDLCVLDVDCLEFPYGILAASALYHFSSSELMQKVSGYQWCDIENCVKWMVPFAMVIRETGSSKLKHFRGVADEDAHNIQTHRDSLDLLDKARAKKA
Change,normalised enrichment score
SFEPRNLLSLAED [F11A],0.633
SFEPVNLLSLFED [R5V],1.54
SFEPRNLQSLFED [L8Q],0.831
SFEPRNLLSNFED [L10N],1.86
SFEPMNLLSLFED [R5M],1.48
SFEPRNLLSLRED [F11R],-0.84
SFCPRNLLSLFED [E3C],2.41
SFEPRNLLALFED [S9A],1.94
SFEPRNLLSWFED [L10W],2.57
SFEPRNLLSKFED [L10K],-0.0356
SFEPRNLLSHFED [L10H],1.26
MFEPRNLLSLFED [S1M],2.57
SFEPRNLLSLFEH [D13H],1.04
SFEPFNLLSLFED [R5F],0.433
SFEPRQLLSLFED [N6Q],1.28
SHEPRNLLSLFED [F2H],0.0352
SFQPRNLLSLFED [E3Q],2.27
SFEKRNLLSLFED [P4K],0.691
SFEPRNLLSDFED [L10D],1.79
SFEPRNMLSLFED [L7M],0.354
SFEPRNLPSLFED [L8P],0.0723
LFEPRNLLSLFED [S1L],1.67
SFEERNLLSLFED [P4E],0.53
SFEPRNLLWLFED [S9W],1.93
SFEPRNLLTLFED [S9T],1.44
